Published values collected from several papers.
Parts stem from different laboratories: compare values within a part only.

Series 1 — technique: aptamer microarray, sandwich; form: DNA with 2'F-ANA; matrix: in vitro; tested at: 200 nM; with: Cy3 exosite-II aptamer, 400 nM; reading: higher = stronger binding; strand: GGTTGGTGTGGTTGG
Target: Prothrombin, mature alpha-thrombin (F2, Homo sapiens, UniProt P00734)
Notes: whole 15-mer aptamer, many near background
Modification | mean fluorescence intensity
2'F-ANA at 2 3 6 7 8 11 13 14 | 409 a.u.
2'F-ANA at 3 6 8 11 12 | 1170 a.u.
2'F-ANA at 2 3 5 13 14 | 49.2 a.u.
2'F-ANA at 1 3 4 6 7 9 10 11 12 | 84.3 a.u.
2'F-ANA at 3 4 5 7 8 9 11 13 | 73.1 a.u.
2'F-ANA at 2 3 7 9 11 15 | 737 a.u.
2'F-ANA at 3 5 6 7 8 10 | 127 a.u.
2'F-ANA at 2 3 4 6 7 10 12 14 | 182 a.u.
2'F-ANA at 1 5 6 7 12 13 15 | 72.6 a.u.
2'F-ANA at 1 2 5 6 7 9 10 11 13 | 55.4 a.u.
2'F-ANA at 2 3 5 6 7 12 13 14 | 53.6 a.u.
2'F-ANA at 5 8 9 10 | 92.2 a.u.
2'F-ANA at 1 5 6 9 10 11 12 13 | 45.3 a.u.
2'F-ANA at 5 6 7 9 10 12 13 14 15 | 47 a.u.
2'F-ANA at 1 2 7 8 12 | 441 a.u.
2'F-ANA at 1 4 5 8 13 14 | 47.1 a.u.
2'F-ANA at 1 2 5 7 8 9 10 12 13 14 | 47 a.u.
2'F-ANA at 6 8 11 12 13 | 631 a.u.
2'F-ANA at 4 7 9 13 | 175 a.u.
2'F-ANA at 1 2 3 4 9 11 12 13 14 | 72.1 a.u.
2'F-ANA at 2 4 6 9 11 12 14 | 102 a.u.

Series 2 — technique: competition protein-binding microarray; form: double-stranded DNA, one strand shown; matrix: in vitro; tested at: 2 µM; with: Pho4 competitor, 0.05 µM; reading: higher = stronger binding; shared flanks, not repeated: … GTCTTGATTCGCTTGACGCTGCTG
Target: Centromere-binding protein 1, full length, His-tagged (CBF1, Saccharomyces cerevisiae, UniProt P17106, residues 1-351)
Sequence of UniProt P17106 (whole entry, looked up): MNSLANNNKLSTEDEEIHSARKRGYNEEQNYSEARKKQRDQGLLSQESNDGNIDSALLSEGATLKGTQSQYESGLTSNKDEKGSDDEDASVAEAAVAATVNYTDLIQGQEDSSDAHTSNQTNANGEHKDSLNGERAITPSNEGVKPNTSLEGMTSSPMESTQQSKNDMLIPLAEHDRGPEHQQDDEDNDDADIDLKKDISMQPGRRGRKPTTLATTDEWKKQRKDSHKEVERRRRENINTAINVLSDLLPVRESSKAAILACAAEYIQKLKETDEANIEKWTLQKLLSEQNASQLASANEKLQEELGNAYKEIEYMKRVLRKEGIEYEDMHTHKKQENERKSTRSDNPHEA
Notes: whole 60-bp probe, lowest competitor level
Strand | fluorescence intensity [a.u.]
TTTACCCCGGTGCTATTCGTGACGGTAACTATGGAA | 67
TCTATGGCATGTAGAGTCGTGATGGCTGCTGTACGC | 85
TTGAGCATAATCCATCACGTGATGGACACCCATACC | 11100
AGCTGCCGGCTCGGTCAGGTGGACGAAACAAAAAAG | 497
CTTTCCCGATCTTTTCACGTGGCGTTAGCACATTTG | 780
TCTGTGGGTAAATGTCTCGTGCAAAAAGACAGGCTA | 216
GCTTGGACCATAAAATACGTGACGGAGGACACCATA | 114
CACACCGCGAGAAACATCGTGGAAGATTACGGAGCT | 63.2
CTTCTGTAAATTTGTTCAGTGGGTGGACGCGCCCCG | 86.9
CTAACGAAGGTTTGGGCAGTGGGTGACAAGCCAAGT | 70.2
AAAGCGGTAATTTGTCACCATACTTCACATATCTAT | 93.9
TTTTGCTCAAACGGTCGCGTGCTAAGCGGAACGAGA | 163
GTCTTGTCTCATTTTCACGTGTCCTTCCCCACTTCA | 854
AAACTGCTGTCATAACGCGTGGTGATGTGGTTTTGC | 65.8
CTAACGAAGGTTTGACCTGTGGGTGACAAGCCAAGT | 73.3
AAAGCGGTAATTTGACGTGTGGGTGCAGATATCTAT | 95.8
GCTGACGCTATCCGTCACGTGGTGATGGCAGCTGCT | 4000

Series 3 — target: UBE2T UBC core domain (UniProt Q9NPD8); technique: yeast two-hybrid; matrix: yeast; notes: mostly zero background; baseline: not given; reading: higher = stronger interaction
B1: UBE4B RING domain (UniProt O95155); chain KNARAEIDYSDAPDEFRDPLMDTLMTDPVRLPSGTIMDRSIILRHLLNSPTDPFNRQTLTESMLEPVPELKEQIQAWMREKQNSDH
B2: NHLRC1 RING domain (UniProt Q6VVB1); chain MREAEISLLECKVCFEKFGHRQQRRPRNLSCGHVVCLACVAALAHPRTLALECPFCRRACRGCDTSD
B3: MDM2 RING domain (UniProt Q00987); chain TQDKEESVESSLPLNAIEPCVICQGRPKNGCIVHGKTGHLMACFTCAKKLKKRNKPCPVCRQPIQMIVLTYFP
B4: TRIM68 RING domain (UniProt Q6AZZ1); chain LVEAIVEEVACPICMTFLREPMSIDCGHSFCHSCLSGLWEIPGESQNWGYTCPLCRAPVQPRNLRP
B5: RNF7 RING domain (UniProt Q9UBF6); chain AICRVQVMDACLRCQAENKQEDCVVVWGECNHSFHNCCMSLWVKQNNRCPLCQQDWVVQRIGK
B6: RMND5B RING domain (UniProt Q96G75); chain MKCWYHSVFACPILRQQTSDSNPPIKLICGHVISRDALNKLINGGKLKCPYCPMEQNPADGK
B7: CBLL1 RING domain (UniProt Q75N03); chain GEKDDTPVHFCDKCGLPIKIYGRMIPCKHVFCYDCAILHEKKGDKMCPGCSDPVQRIEQCT
B8: RNF10 RING domain (UniProt Q8N5U6); chain VRICSHEVPSCPICLYPPTAAKITRCGHIFCWACILHYLSLSEKTWSKCPICYSSVHKKDLKS
B9: RFPL3 RING domain (UniProt O75679); chain MAALFQEASSCPVCSDYLEKPMSLECGCTVCLKCINSLQKEPHGEDLLCCCCSMVSQRNKIRP
B10: RNF115 RING domain (UniProt Q9Y4L5); chain TQEQVDMGLECPVCKEDYTVEEEVRQLPCNHFFHSSCIVPWLELHDTCPVCRKSLNGEDSTR
B11: SHPRH RING domain (UniProt Q149N8); chain KTSGGVNPEPCPICARQLGKQWAVLTCGHCFCNECISIIIEQYSVGSHRSSIKCAICRQTTSHKEISY
B12: RNF11 RING domain (UniProt Q9Y3C5); chain RDGSEKKIRECVICMMDFVYGDPIRFLPCMHIYHLDCIDDWLMRSFTCPSCMEPVDAALLSS
Target sequence (chain): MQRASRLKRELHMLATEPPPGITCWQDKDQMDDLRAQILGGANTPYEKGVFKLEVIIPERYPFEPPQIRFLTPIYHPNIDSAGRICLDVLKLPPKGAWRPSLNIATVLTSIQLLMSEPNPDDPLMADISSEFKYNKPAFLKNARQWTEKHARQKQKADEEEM
Sequence | lacZ reporter activity
EDVLSKDAGECAICLEELQQGDTIARLPCLCIYHKGCIDEWFEVNRSCPEHPSD (ZNRF2 RING domain (UniProt Q8NHG8)) | 0
B1 (UBE4B RING domain) | 0
B2 (NHLRC1 RING domain) | 0
B3 (MDM2 RING domain) | 0
B4 (TRIM68 RING domain) | 0
VPADASPDSKCPICLDRFDNVSYLDRCLHKFCFRCVQEWSKNKAECPLCKQPFDSIFHSV (TOPORS RING domain (UniProt Q9NS56)) | 0
B5 (RNF7 RING domain) | 0
AAQLLEEKLTCAICLGLYQDPVTLPCGHNFCGACIRDWWDRCGKACPECREPFPDGAELR (TRIM65 RING domain (UniProt Q6PJ69)) | 0
B6 (RMND5B RING domain) | 0
B7 (CBLL1 RING domain) | 0
MEEMEEELKCPVCGSFYREPIILPCSHNLCQACARNILVQTPESESPQSHRAAGSGVSDY (TRIM9 RING domain (UniProt Q9C026)) | 0
B8 (RNF10 RING domain) | 0
B9 (RFPL3 RING domain) | 0
B10 (RNF115 RING domain) | 0
B11 (SHPRH RING domain) | 0
B12 (RNF11 RING domain) | 0

Series 4 — cell line: yeast with cyclin D1-Cln2 chimera; read-out: cell growth; action: binder; technique: competitive growth deep sequencing; form: peptide; tested at: concentration not given; notes: peptide tiling library; reading: direction not given
Sequence | growth enrichment score
ATNSSHTDAHEILVSD | 1.28
KVRRNLFNQELLSP | -0.171
NRLLKLFTRCLTPLVP | -0.887
NESHLDKEHDAVEVAD | 1
ISRLFPPRTPGWHQLQ | -1.96
NLEPNAEFDKRTEFIT | 1.52
ELGMEHCEKFEISETS | 1.1
VSRNLRSSLKSSLHTL | -0.798
PPTFLSTGEIHAFLSS | 1.1
SFLIEYEFLIPPSLKP | 0.891
SPREGHMMDALYAQVK | 1.27
EHCRVLFLDHVMYTIH | 0.0529

Series 5 — technique: protein binding microarray; form: double-stranded DNA, one strand shown; matrix: in vitro; tested at: not given; baseline: not given; reading: higher = stronger binding
Target: Histone acetyltransferase KAT6A, winged helix 1, GST fusion (KAT6A, Homo sapiens, UniProt Q92794, residues 1-85)
Notes: 8-mer, flanks averaged, mean of 2 arrays, mostly near background
Residues (chain): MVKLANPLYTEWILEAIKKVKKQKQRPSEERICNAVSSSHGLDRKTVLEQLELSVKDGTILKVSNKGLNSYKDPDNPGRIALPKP
Strand | E-score
GCGACAAA | 0.0294
ATTTTCTG | -0.221
ACGCCTCA | -0.0193
AGATGGCG | 0.0375
GAGTGGAA | -0.113
CTAAAGCC | -0.0502
GAGACTTA | -0.177
CGGCACCC | 0.331
CCCGTATC | 0.217
AGAGATAA | -0.258
AGGACTGG | -0.199
ACAACAAG | -0.103
CTGGAATA | -0.115
CTCTAGTA | -0.0563
ACATCGCA | 0.0673
TGGGCACA | -0.0976
CAGGTTGC | -0.0612
GAATAAAC | -0.0246
GTGTGCGA | 0.14
ATTTTCTC | -0.0884
AGCATGGA | -0.099
AGTGTTCC | -0.0425
ACGCAGTG | 0.274
AAGGACGG | 0.316
AGATGATC | -0.179

Series 6 — technique: universal PBM; form: double-stranded DNA, one strand shown; matrix: in vitro; tested at: not given; reading: higher = stronger binding
Target: Sal-like protein 4, full length isoform B (SALL4, Homo sapiens, UniProt Q9UJQ4-2, residues 1-616)
Notes: 8-mer, flanks averaged, mean of replicates
Strand | E-score
CATGGGAG | -0.11
ACCTTAGA | 0.0191
ACGCGGTG | -0.271
CTTAGATC | -0.0523
CCTGTACC | -0.176
ATATTTGA | 0.38
CCACGTGA | -0.0706
CGAAGCAC | -0.109
CGCCTCTA | -0.125
GTGGGCGA | -0.0567
TAGCTAGA | -0.0745
CCTCGCAA | -0.115
AGTTACGC | -0.105
CTCAGTGA | -0.144
ATTCAATG | 0.217
AATGTTGT | 0.183
CATTGGCA | 0.0126
CAGCTGCA | -0.103
GCGAAAAA | 0.164
CCTTGGCC | -0.306
GCTAAACA | 0.0455
AAGTCACG | -0.118
ATGGTGGC | -0.114
